Experimental data gathered from unrelated publications.
Every numbered part comes from another study and shows a few of its results, in no order. Changes are numbered by the printed parent chain.

Series 1 — method: competition protein-binding microarray; form: double-stranded DNA, one strand shown; medium: in vitro; tested at: 2 µM; added: Cbf1 competitor, 0.05 µM; direction: higher = stronger binding
Target: Phosphate system positive regulatory protein PHO4, full length, GST-tagged (PHO4, Saccharomyces cerevisiae, UniProt P07270, residues 1-312)
Notes: whole 60-bp probe, lowest competitor level
Residues (chain): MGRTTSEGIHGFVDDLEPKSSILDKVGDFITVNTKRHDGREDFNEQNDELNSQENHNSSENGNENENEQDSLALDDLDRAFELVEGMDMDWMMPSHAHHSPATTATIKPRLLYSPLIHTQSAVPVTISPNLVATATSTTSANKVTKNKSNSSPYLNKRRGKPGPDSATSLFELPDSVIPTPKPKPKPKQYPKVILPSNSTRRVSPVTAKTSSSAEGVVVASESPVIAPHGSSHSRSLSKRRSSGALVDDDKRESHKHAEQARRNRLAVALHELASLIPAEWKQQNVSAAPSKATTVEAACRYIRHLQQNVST
Oligonucleotide	fluorescence intensity [a.u.]
GTCTTGTCTCATTTTCACGTGTGTTTCCCCACTTCAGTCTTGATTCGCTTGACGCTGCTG	12200
ATTGCTCATTGAAAGCACGTGTTCCTTCAAATGAGAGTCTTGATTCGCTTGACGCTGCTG	18800
CTAACGAAGGTTTTTCACGTGGAATACAAGCCAAGTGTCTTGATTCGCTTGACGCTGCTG	13000
CGGGGTTAAGTTTTTCACGTGACCTGCTTGCAGCAGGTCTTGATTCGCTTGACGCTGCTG	9240
TGCTTACTTGATTGTCATGTGCCTTCGTAGGCAAAGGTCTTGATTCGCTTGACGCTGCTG	8630
GCAAAACGCCCCGCCCACGTGGAGTTGACAGTTAAGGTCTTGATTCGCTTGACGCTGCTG	16200
AGCATATCCGCTGTTCACATGATACGGTCTAGGATTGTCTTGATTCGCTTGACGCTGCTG	5190
CTAACGAAGGTTTGATGGGTGGGTGACAAGCCAAGTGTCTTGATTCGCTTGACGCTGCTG	4350
AAAGCGGTAATTTGTCACATAACTTCACATATCTATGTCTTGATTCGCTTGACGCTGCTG	3890
AAACCTGGTTCTGCTACCGTGCCAGTCTTTGGTATTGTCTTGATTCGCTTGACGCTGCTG	4360
AGACCCTTGTCGCGTCAGGTGATTGTTGTGGTACTTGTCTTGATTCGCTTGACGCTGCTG	3810
GTACCAAGACATCCGCACGTGGAAGATGACGCCTGCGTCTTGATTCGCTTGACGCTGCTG	15300
AGAGGTTCCTCTCGCCATGAGGTGAGTCAGCCACTGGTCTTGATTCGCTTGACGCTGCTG	5540
CGGGGTTAAGTTTGATTCGTGGGTGGCTTGCAGCAGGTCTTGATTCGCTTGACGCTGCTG	5600
AAGGCCATAAAAAGAACCGTGACGGGGCCAAACAGAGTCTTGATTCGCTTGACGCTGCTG	4680
AAATTACTAAGTTGCTCCGTGGGTGACGCCGTATGAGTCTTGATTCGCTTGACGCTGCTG	5050
TTGTTCGAAAAAAATAGCGTGCTTTTTGGCCAGAAAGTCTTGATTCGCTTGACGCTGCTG	5350

Series 2 — method: RNA Bind-n-Seq; form: RNA; medium: in vitro; tested at: 365 nM; reference: no-protein control; direction: higher = stronger binding
Target: RNA binding protein fox-1 homolog 2, RRM domain, GST-SBP tag (RBFOX2, Homo sapiens, UniProt O43251-10, residues 100-194)
Notes: natural RNA segment, single round, ends assumed
Construct (chain): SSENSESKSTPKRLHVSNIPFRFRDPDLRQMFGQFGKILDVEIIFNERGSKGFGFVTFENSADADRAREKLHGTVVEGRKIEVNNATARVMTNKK
Oligonucleotide	RBNS enrichment (R)
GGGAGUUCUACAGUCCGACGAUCCGGAUAGACAGAUCAAAUGGUGGCCCAAUAGCGAGCCUUCUCCCUGCUCCCUCCCUUGACACAGCUUGCUUAUGUUAUUUCAGAGUGUAGGUGACUUGUUUACACAGCUUUGGAAUUCUCGGGUGCCAA	1.11
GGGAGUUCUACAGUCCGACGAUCAGAAAAAAUGAGAUUUUACAAGUGAAAUGGAACCUUUUUAUAUAUACAUACAUACAUAUCUAUCUAUCUAUCUAUAUAUAUAUAAAAUAAAGUAAUUUUCCUAAAUAAAAUGGAAUUCUCGGGUGCCAA	1.54
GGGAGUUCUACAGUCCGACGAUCUCCCAGGUAGCUUAGUGUUUAACAUCUCUCUCACCAUCCUGAUGCAGUAGCAUGGCUAUUGCUGAGGUUAUUUUACCUAAUAAUUAGAACUUUGUAUUUACAAAGCAAGUUGGAAUUCUCGGGUGCCAA	0.769
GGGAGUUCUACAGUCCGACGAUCAUGACCACAAGGGCCCCACCAUCACUUUGACCCAGAUUGUGUGACAUACACCUGAGAGGAAUUGAGGGAGUAUUGGUGUCUAGGUUGUCAUGUUUCUGUUUUGUGACACAUGGAAUUCUCGGGUGCCAA	0.283
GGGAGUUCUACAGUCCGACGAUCUUGCUGUUUUGUGUUUAAUUAGUAUAUUGUUCAUGCCUCUCUUCUGCAGUGUCUCAUCUCAUAGACUGUGAACCUGUAUAUUAUUCAAAUGGCUACAGAUAAUGCUCUUUUGGAAUUCUCGGGUGCCAA	0.358
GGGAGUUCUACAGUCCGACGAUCUAGGAAUUCCUGUCCUAUUUGAGAUGAACUAUAUCCUGUACCUCUGUGCUCUGUGUCUGCAUGAAGGCUCAGCCUUUAGAGGCACUCCUUCUAGUUGCAUUAGUACUGUCUGGAAUUCUCGGGUGCCAA	1.47
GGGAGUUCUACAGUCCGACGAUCUGACUAGAUAUAGCACCUAUUAAAAGAGAACUCUUGCUUCUUCUGAGAUUUUUCAAGCUGUGCUUUGUGUGUGUGCCAGUAGACUUACGCAAGGACAGGGUACAAACUUAUGGAAUUCUCGGGUGCCAA	0.392
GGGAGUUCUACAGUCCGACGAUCAAACCAGUCUGUGUGGCCAAGCUGAUGGGAUUUGAAAAGAGUGGAUAAUUUUUAGCCUUUCCAAAAUGCAAAUAACUUGGAUAUAUUUCCAUUUUCCAGCUAUAGAGAGAUGGAAUUCUCGGGUGCCAA	0.585
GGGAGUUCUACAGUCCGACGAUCUGUCCUGACCUUUUCAGUCCUACAGAGACGCAUCUGUGGUUCUUUUGUACUUGCCAUAGAUGUAACCUAAAAAGUUUUGGCAUAUUUAGGUCAGCCUAGCGGAACUUUUUUGGAAUUCUCGGGUGCCAA	0.275
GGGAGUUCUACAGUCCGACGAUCUCAUGGAAGAAAAUGGAAUCUACAGAAUUAUUUUCAAAAAUAAAGUAAAGGCUGAAUUGCUGAAAAAUAAGUGUGUGUGUGUGUCCUAGGGAAGGAGGCGAAGGGGUGGGUGGAAUUCUCGGGUGCCAA	0.771
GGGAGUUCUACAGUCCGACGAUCACCUGCCUUUGCCACUACAUAGGCUGCCUCUGGGCUGUUGGAAGCUCUUCAGUGAGCCUAAGUCUUGGGAACUCAGCAGGCGGCACCUUCUCACACAGCAAGUCCGAGCUUGGAAUUCUCGGGUGCCAA	0.418
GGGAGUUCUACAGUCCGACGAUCCGUUCAGUUAAGUUUUUCCCUUCAUCUGGGCACUGAAGGGAUAUGUGAAACAAUGUUAACAUUUUUGGUAGUCUUCAACCAGGGAUUGUUUCUGUUUAACUUCUUAUAGGUGGAAUUCUCGGGUGCCAA	0.65

Series 3 — method: protein-binding microarray; form: double-stranded DNA, one strand shown; medium: in vitro; tested at: 2200 nM top; notes: 60-bp whole probe; added: salmon DNA 0.4 mg/ml; reference: random background probes; direction: higher = stronger binding; constant ends, left off below: GCCTAGCAC … GTCTTGATTCGCTTGACGCTGCTG
Target: Interferon regulatory factor 7, full length, phosphomimetic (IRF7, Homo sapiens, UniProt Q92985, residues 1-503, S471D/S472D/S475D/S476D/S477D/S483D/S484D/S487D)
Target sequence (chain): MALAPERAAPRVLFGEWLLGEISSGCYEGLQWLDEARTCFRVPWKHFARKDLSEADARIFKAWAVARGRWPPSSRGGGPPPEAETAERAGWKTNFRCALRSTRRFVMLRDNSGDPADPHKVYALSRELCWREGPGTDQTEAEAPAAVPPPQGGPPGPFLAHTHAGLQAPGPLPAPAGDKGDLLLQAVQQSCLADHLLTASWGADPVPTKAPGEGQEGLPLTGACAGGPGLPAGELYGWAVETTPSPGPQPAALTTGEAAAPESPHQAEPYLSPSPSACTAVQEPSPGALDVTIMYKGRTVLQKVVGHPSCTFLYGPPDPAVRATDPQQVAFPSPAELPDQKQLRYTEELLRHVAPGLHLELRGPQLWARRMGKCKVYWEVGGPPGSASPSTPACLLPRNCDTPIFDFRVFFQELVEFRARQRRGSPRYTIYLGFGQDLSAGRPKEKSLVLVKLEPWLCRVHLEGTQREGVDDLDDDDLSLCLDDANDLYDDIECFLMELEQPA
Oligonucleotide	fitted relative affinity
TTAGGTACCGACACTGGGTTAGTGCTA	-0.296 z-score
TTAGATTTCAGTATCGGTTAGTGCTAG	1.18 z-score
TTAGGTACCGACTATCGGTTAGTGCTA	0.219 z-score
TCACTTTCCCAGCCTGGGACTGTGCTA	2.68 z-score
TTAGATTTCAGACTGTATTAGTGCTAG	0.212 z-score
TCACCCCTCCCCCTCAGACTGTGCTAG	0.169 z-score
TTAGGTCTCGGACTGGGCTAGTGCTAG	-0.662 z-score
AGGGCAGGGAGGGGGACAGCGTGCTAG	0.471 z-score
GACGGACGGGGGTTTCGGGACGTGCTA	1.51 z-score
TTAGGTCGCGGTATCGGTTAGTGCTAG	0.405 z-score
GACGATTTCGGTTTCGGGACGTGCTAG	10.8 z-score
TTAGATCTCAGTTTTGATTAGTGCTAG	0.597 z-score
TTAGATTTCAGACAGGATTAGTGCTAG	-0.393 z-score
GATGATATCAGTATCGAGACGTGCTAG	0.157 z-score
ATAGATATCGGGTTTCGATTAGTGCTA	3.19 z-score
TTAGGCTTCGGTTTCGGTTAGTGCTAG	6.56 z-score
TCCCAAGTCTTGTTTTACAATGTGCTA	0.859 z-score
TCAAATTTCTTCCTCCCACTGTGCTAG	1.58 z-score
TTAGGTGCCGGTTTCGGTTAGTGCTAG	5.92 z-score
CTTGCTCTTGTTTTCACAGGGTGCTAG	1.87 z-score
GAAGATTTCAGTCTCGAGACGTGCTAG	0.513 z-score
TTAGGGTTCCTACTGCTTTAGTGCTAG	0.243 z-score
TCATCAATCATTTTCGTACTGTGCTAG	3.34 z-score

Series 4 — target: CREB5, bZIP domain (human); method: DHFR protein complementation; medium: yeast; reference: wild-type JUN-FOS pair; direction: higher = stronger binding
Notes: single substitutions, most at no-binding floor
Starting sequence: JUN, bZIP domain (human); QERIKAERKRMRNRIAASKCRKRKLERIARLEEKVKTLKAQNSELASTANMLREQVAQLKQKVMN; partner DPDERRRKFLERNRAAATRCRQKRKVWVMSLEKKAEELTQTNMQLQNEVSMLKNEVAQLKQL
Substitution	binding fitness
S47E	-0.124 natural log
A57P	-1.34 natural log
E54S	-0.535 natural log
L52V	-1.37 natural log
L31R	-1.35 natural log
K36H	-0.389 natural log
L59G	-1.24 natural log
T48E	-0.259 natural log
A57E	-0.212 natural log
K36S	-0.25 natural log
E44H	-0.446 natural log
S43T	-0.162 natural log
L45R	-1.36 natural log
L59K	-1.44 natural log
E44C	-0.575 natural log

Series 5 — target: CCNB3, cyclin fold, Cln2 fusion (human); method: yeast growth competition, sequencing; medium: yeast; notes: weak parent motif; reference: not given; direction: higher = stronger binding
Starting sequence: KIF20B docking peptide (human); KRAKRKLYTSEIS; partner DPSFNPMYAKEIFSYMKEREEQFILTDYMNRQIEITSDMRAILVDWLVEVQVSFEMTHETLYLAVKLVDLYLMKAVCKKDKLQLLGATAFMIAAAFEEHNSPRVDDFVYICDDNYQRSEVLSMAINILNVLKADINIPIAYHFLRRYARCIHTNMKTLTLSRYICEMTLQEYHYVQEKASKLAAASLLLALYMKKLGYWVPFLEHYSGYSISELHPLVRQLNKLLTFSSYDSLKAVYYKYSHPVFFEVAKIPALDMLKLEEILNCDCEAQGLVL
Substitution	normalised enrichment score
S13A	0.0602
K6A	0.352
T9A	-0.0393
K4A	0.276
R2A	-0.0221
K1A	0.249

A few entries again (series 3):
Oligonucleotide	fitted relative affinity
TCCCAAGTCTTGTTTTACAATGTGCTA	0.859 z-score
TCAAATTTCTTCCTCCCACTGTGCTAG	1.58 z-score
CTTGCTCTTGTTTTCACAGGGTGCTAG	1.87 z-score
TTAGGTCTCGGACTGGGCTAGTGCTAG	-0.662 z-score
GACGGACGGGGGTTTCGGGACGTGCTA	1.51 z-score
TTAGGTACCGACTATCGGTTAGTGCTA	0.219 z-score
TTAGATTTCAGACAGGATTAGTGCTAG	-0.393 z-score
GAAGATTTCAGTCTCGAGACGTGCTAG	0.513 z-score
TCACTTTCCCAGCCTGGGACTGTGCTA	2.68 z-score
